{"data": "Experimental data gathered from unrelated publications", "note": "Compare with care: the assays were run in different laboratories. Numbers after ± are the reported error."}
{"Structure (SMILES)": "CCCC[C@H](NC(=O)CNC(=O)CNC(=O)CN1CCN(CC(=O)O)CCN(CC(=O)O)CCN(CC(=O)O)CC1)C(=O)N[C@H]1CC(=O)NCCCC[C@@H](C(N)=O)NC(=O)[C@H](Cc2c[nH]c3ccccc23)NC(=O)[C@H](CCCNC(=N)N)NC(=O)[C@@H](Cc2ccccc2)NC(=O)[C@H](Cc2c[nH]cn2)NC1=O [gallium-67 labelled]", "test system": "female C57 mice, B16/F1 melanoma, stomach", "setting": "intravenous, 0.037 MBq, 2 h", "tissue uptake": "1.68 ± 0.5 %ID/g"}
{"Structure (SMILES)": "N=C(N)NCCC[C@@H]1NC(=O)[C@H](CCCCNC(=O)CON=C[C@H](F)[C@@H](O)[C@H](O)[C@H](O)CO)NC(=O)[C@@H](Cc2ccc(O)cc2)NC(=O)[C@H](CC(=O)O)NC(=O)CNC1=O [fluorine-18 labelled]", "test system": "nude mice U-87 MG tumour, liver", "setting": "intravenous, 2 h", "tissue uptake": "0.43 ± 0.4 %ID/g"}
{"Structure (SMILES)": "CCCC[C@@H]1NC(=O)[C@@H](NC(=O)[C@H](CCC(=O)O)NC(=O)CNC(=O)CN2CCN(CC(=O)O)CCN(CC(=O)O)CCN(CC(=O)O)CC2)CCCCNC(=O)C[C@@H](C(N)=O)NC(=O)[C@H](C(C)C)NC(=O)[C@@H]2CCCN2C(=O)[C@H](CCCNC(=N)N)NC(=O)CNC(=O)[C@H](Cc2c[nH]c3ccccc23)NC(=O)[C@H](CCCNC(=N)N)NC(=O)[C@@H](Cc2ccccc2)NC(=O)[C@H](Cc2c[nH]cn2)NC(=O)[C@H](CCC(=O)O)NC1=O [gallium-67 labelled]", "test system": "C57 mice with B16/F1 melanoma, kidneys", "setting": "intravenous, 0.037 MBq, 4 h", "tissue uptake": "22.6 ± 4.03 %ID/g"}
{"Structure (SMILES)": "N=C(N)NCCC[C@H](NC(=O)CON=C[C@H](F)[C@@H](O)[C@H](O)[C@H](O)CO)C(=O)NCC(=O)N[C@@H](CC(=O)O)C(=O)O [fluorine-18 labelled]", "test system": "nude mice U-87 MG tumour, lung", "setting": "intravenous, 2 h", "tissue uptake": "0.47 ± 0.37 %ID/g"}
{"Structure (SMILES)": "O=C([O-])CN1CCN(CC(=O)[O-])CCN(CC(=O)NCCc2ccc3c(c2)C2C=CCC2C(c2cc4c(cc2Br)OCO4)N3)CCN(CC(=O)[O-])CC1.[111In+3] (stereo not drawn)", "test": "SPECT/CT imaging", "test system": "mice with Hec50 tumour xenograft, liver", "setting": "1 h", "tissue uptake": "14.5 % ID"}
{"Structure (SMILES)": "CC(C)[C@H](NC(=O)[C@@H]1CCCN1C(=O)[C@H](CCCNC(=N)N)NC(=O)[C@H](CS)NC(=O)[C@H](Cc1c[nH]c2ccccc12)NC(=O)[C@H](CCCNC(=N)N)NC(=O)[C@@H](Cc1ccccc1)NC(=O)[C@H](Cc1c[nH]cn1)NC(=O)[C@H](CCC(=O)O)NC(=O)[C@H](CS)NC(=O)[C@H](CS)NC(=O)[C@@H]1CC(=O)N[C@@H](CCCNC(=N)N)C(=O)NCC(=O)N[C@@H](CC(=O)O)C(=O)N[C@H](Cc2ccc(O)cc2)C(=O)N1)C(N)=O [technetium-99m labelled]", "test system": "C57 mice B16/F1 melanoma female, stomach", "setting": "iv, 2 h, added: NDP-MSH 10 µg co-injected", "tissue uptake": "2.24 ± 0.55 %ID/g"}
{"Structure (SMILES)": "CCCC[C@H](NC(=O)CN1CCC(NC(=O)CN2CCN(CC(=O)O)CCN(CC(=O)O)CCN(CC(=O)O)CC2)CC1)C(=O)N[C@H]1CC(=O)NCCCC[C@@H](C(N)=O)NC(=O)[C@H](Cc2c[nH]c3ccccc23)NC(=O)[C@H](CCCNC(=N)N)NC(=O)[C@@H](Cc2ccccc2)NC(=O)[C@H](Cc2c[nH]cn2)NC1=O [gallium-68 labelled]", "test system": "C57BL/6J mice male B16-F10 tumour, liver", "setting": "1 h post injection, unblocked", "tissue uptake": "0.6 ± 0.2 %ID/g"}
{"Structure (SMILES)": "CCCC[C@H](NC(=O)CNC(=O)CNC(=O)CN1CCN(CC(=O)O)CCN(CC(=O)O)CC1)C(=O)N[C@H]1CC(=O)NCCCC[C@@H](C(N)=O)NC(=O)[C@H](Cc2c[nH]c3ccccc23)NC(=O)[C@H](CCCNC(=N)N)NC(=O)[C@@H](Cc2ccccc2)NC(=O)[C@H](Cc2c[nH]cn2)NC1=O [gallium-67 labelled]", "test system": "female C57 mice, B16/F1 melanoma, brain", "setting": "intravenous, 0.037 MBq, 4 h", "tissue uptake": "0.08 ± 0.03 %ID/g"}
{"Structure (SMILES)": "O=C([O-])c1cccc(CN(CCN(Cc2cn(Cc3ccccc3)nn2)Cc2cccc(C(=O)[O-])n2)Cc2cn(Cc3ccccc3)nn2)n1.[64Cu+2]", "test system": "healthy athymic nude mice, small intestine", "setting": "intravenous, 4 h", "tissue uptake": "5.18 %ID/g"}
